# Measurements gathered from unrelated publications.
# Several values in a cell are separate wells, animals, samples, runs or records. ± marks the error that the study gave.
# Voltage-dependent P/Q-type calcium channel subunit alpha-1A: Voltage-dependent P/Q-type calcium channel subunit alpha-1A (Homo sapiens, UniProt O00555)
# ADRA2C: Alpha-2C adrenergic receptor (ADRA2C, Homo sapiens, UniProt P18825)
# GUK1: GUK1 (Homo sapiens, UniProt Q16774)
# TOP2B: DNA topoisomerase 2-beta (TOP2B, Homo sapiens, UniProt Q02880)
# UCHL1: Ubiquitin carboxyl-terminal hydrolase isozyme L1 (UCHL1, Homo sapiens, UniProt P09936)
# T1: RNA aptamer A7C, 5'-triphosphate, 2',3'-cyclic phosphate; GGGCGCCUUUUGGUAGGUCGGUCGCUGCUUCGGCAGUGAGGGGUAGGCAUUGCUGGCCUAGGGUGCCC
# T2: ssRNA aptamer; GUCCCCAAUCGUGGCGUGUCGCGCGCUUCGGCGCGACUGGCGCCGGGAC
# T3: G-quadruplex DNA (Homo sapiens); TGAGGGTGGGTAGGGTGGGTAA
Compound,tested on,test,system,conditions,how to read,measurement,value
Cc1cn(C2CCN(Cc3cncc(Oc4cc(Cl)cc(Cl)c4)c3)CC2)c(=O)[nH]c1=O,"Thymidylate kinase (DTYMK, Homo sapiens, UniProt P23919)","enzyme activity, inhibitor",,no inhibition observed,,highest concentration tested,> 31 µM
CC[C@H](C)C(=O)O[C@H]1C[C@H](O)C=C2C=C[C@H](C)[C@H](CC[C@@H](O)C[C@@H](O)CC(=O)O)[C@H]21,Voltage-dependent P/Q-type calcium channel subunit alpha-1A,"ion current, antagonist",HEK293,10 µM,,inhibition,7%
O=C1c2ccccc2C(=O)c2c(NCCc3ccc(O)cc3)ccc(NCCc3ccc(O)cc3)c21,Toxoplasma gondii,parasite growth,"HFF, bradyzoite, alkaline-induced",,,EC90,438000 nM
CC1=C[C@H](O)CC(C)(C)[C@H]1/C=C/C(C)=C/C=C/C(C)=C/C=C/C=C(C)/C=C/C=C(C)/C=C/C1=C(C)C[C@@H](O)CC1(C)C,"Beta-lactoglobulin (LGB, Bos taurus, UniProt P02754)",fluorescence quenching,,298 K,,Stern-Volmer quenching constant,33000 ± 5000 L/mol
Cc1cc(Oc2ncccc2CN2CCN(c3ccccc3[N+](=O)[O-])CC2)ccc1-c1c(C)c(=O)[nH]c(=O)n1C,ADRA2C,"binding, radioligand binding",,together with: [3H]rauwolscine,relative to: Ki alpha2A over Ki alpha2C,selectivity ratio,6
CN1CCN(c2cc(-c3ccncc3)c(-c3ccc4ccccc4c3)nn2)CC1,"Melanocortin receptor 4 (MC4R, Homo sapiens, UniProt P32245)","agonist, FLIPR",,12.5 µM,,activation,-1.7%
Nc1ncnc2c1ncn2[C@@H]1O[C@H](CO[P@](=O)(O)O[P@](=O)(O)O[P@@](=O)(O)S)[C@@H](O)[C@H]1O,GUK1,ITC,,molar ratio 3.053,,ΔH,-0.246 kcal/mol
CC[C@@H]1[C@H](F)C(=O)N[C@@H]1COc1nccc2cc(C(N)=O)c(OC)cc12,"Serine/threonine-protein kinase 38-like (STK38L, Homo sapiens, UniProt Q9Y2H1)","ATP-site probe binding, ActivX profiling",THP-1 cell lysate,"0.04 mM, Lys1 site",,inhibition,-2%
O=C(O)CC(O)(CC(=O)O)C(=O)O,"uncharacterized protein (Pelagibacter ubique, UniProt Q4FLC8)","binding, competition isothermal titration calorimetry",Candidatus Pelagibacter ubique,"together with: cis-aconitate 1 mM competitor, MgSO4 53 mM",,Ka,1.44e+09 M⁻¹ and 1.43e+09 M⁻¹
CCC(=O)NC[C@@H]1C[C@H]1c1cccc2c1CCO2,Voltage-dependent P/Q-type calcium channel subunit alpha-1A,"ion current, antagonist",HEK293,10 µM,,inhibition,7%
[H]/N=C(/N)NCC(=O)O,"Sodium- and chloride-dependent taurine transporter (SLC6A6, Homo sapiens, UniProt P31641, L306A)","binding, microscale thermophoresis",,"61 nM, room temperature, together with: 50 nM labelled protein",higher = more binding,normalised MST signal,-0.0623
O=c1nc(SCc2cc(F)cc(C(F)(F)F)c2)nc(SCc2ccc3sccc3c2)[nH]1,TOP2B,decatenation,,125 µM,,mean decatenated DNA,0%
C=CC(=O)N1CCC(COCC(=O)N2CCN(c3nc(-c4cnc(N)nc4C(F)F)nc(N4CCOC[C@@H]4C)n3)CC2)CC1,"Tyrosine-protein kinase ABL1, phosphorylated (ABL1, Homo sapiens, UniProt P00519, H396P)",KINOMEscan,,1 µM,,remaining binding,91%
O=C(c1cc(=O)[nH]c2ccc([N+](=O)[O-])cc12)N1CCSSCC1,UCHL1,"covalent, intact protein LC-MS",,12.5 µM,,labelling,9.36%
COc1cc(C)[nH]c(=O)c1CN1CCc2c(Cl)cc([C@H](OC)C3COC3)c(Cl)c2C1=O,"Histone-lysine N-methyltransferase EZH2 (EZH2, Homo sapiens, UniProt Q15910)",,,,,residence time,780 min
O=C(NC1CCC1)c1ccc2nc(-c3cccc(NS(=O)(=O)NCCN4CCCCC4)c3)cn2c1,"Phosphatidylinositol 4,5-bisphosphate 3-kinase catalytic subunit alpha isoform (PIK3CA, Homo sapiens, UniProt P42336, I800L)",enzyme activity,,10 µM,,remaining activity,81%
CCCCC[C@H](O)/C=C/[C@H]1[C@H](O)CC(=O)[C@@H]1C/C=C\CCCC(=O)O,"Prostaglandin E2 receptor EP1 subtype (PTGER1, Homo sapiens, UniProt P34995, P39S)","IP1 accumulation, agonist",AD293,"1 h, EP1 P39S mutant",,Emax,122 ± 3.02%
Nc1ncnc2c1ncn2[C@@H]1O[C@H](COP(=O)(O)OP(=O)(O)OP(=O)(O)O)[C@@H](O)[C@H]1O,"P2X purinoceptor 1 (P2RX1, Homo sapiens, UniProt P51575, K136E)","ion current, agonist, two-electrode voltage clamp",Xenopus oocytes,concentration-response curve,,Hill slope,1.66
C#CCN1C(=O)C(O)(CC(=O)c2ccc(CC)cc2)c2ccccc21 (stereo not drawn),UCHL1,"covalent, intact protein LC-MS",,12.5 µM,,labelling,11.6%
Nc1nc(CCc2ccc(Cl)cc2)nn1S(=O)(=O)c1ccc2ncsc2c1,"Lysophospholipase-like protein 1 (Mus musculus, UniProt Q3UFF7)","enzyme activity, activator, gel-based ABPP",purified protein,"concentration not given, together with: FP-rhodamine",relative to: DMSO,probe labeling increase,2.2 fold
O=C(C1=C(O)C(=O)N(c2ccc(O)cc2)C1c1ccc([N+](=O)[O-])cc1)c1ccccc1 (stereo not drawn),"ESR1/YWHAZ, with 14-3-3 zeta (Homo sapiens, UniProt P03372+P63104)","14-3-3ζ/ERα peptide binding, stabiliser, fluorescence polarization",,,,EC1.2,87 µM
CC(=O)c1cccc(CN2CCCC(CCC(=O)NCc3ccc(F)c(F)c3)C2)c1 (stereo not drawn),Trypanosoma cruzi,"reporter translation, Renilla luciferase mRNA translation",cell-free extract,40 µM,relative to: DMSO,inhibition,-11.9%
COc1ccc(CN2CCN(C(=O)CCl)CC2)cc1.Cl,UCHL1,"covalent, intact protein LC-MS",,12.5 µM,,labelling,21.6%
CN1C(N)=N[C@](C)(c2cc(NC(=O)c3ccc(F)cn3)ccc2F)CS1(=O)=O,Voltage-dependent P/Q-type calcium channel subunit alpha-1A,"ion current, antagonist",,3 µM,,inhibition,13%
CC1=C[C@H](O/C=C2/C(=O)O[C@@H]3c4ccccc4C[C@H]23)OC1=O (racemic),"D14, with SMXL7 (Arabidopsis thaliana, UniProt Q9SQR3)","complex formation with SMXL7, agonist, TR-FRET",,"50 µM, 300 min, unit not given, together with: Arabidopsis SMXL7, D14-mEGFP 100 nM",relative to: control,TR-FRET signal,1.13
COc1ccc(C=C(C#N)C(=O)Nc2ccccc2C)cc1O,UCHL1,"covalent, intact protein LC-MS",,12.5 µM,,labelling,10.8%
Nc1nc2c(ncn2[C@@H]2O[C@H](COP(=O)(O)OP(=O)(O)OP(=O)(O)O)[C@@H](O)[C@H]2O)c(=O)[nH]1,"T1, RNA aptamer A7C, 5'-triphosphate, 2',3'-cyclic phosphate",ITC,,,,Kd,40.3 nM
COc1ccc(C2=NN(C(=O)CCl)C(c3ccc(F)cc3)C2)cc1 (stereo not drawn),UCHL1,"covalent, intact protein LC-MS",,12.5 µM,,labelling,11.3%
O=c1nc(SCc2cc(F)cc(C(F)(F)F)c2)nc(SCc2ccc3nc(Cl)ccc3c2)[nH]1,TOP2B,decatenation,,125 µM,,mean decatenated DNA,0.71%
CCS(=O)(=O)N1CC(CC#N)(n2cc(-c3ncnc4[nH]ccc34)cn2)C1,"Alpha-1-acid glycoprotein 1 (ORM1, Homo sapiens, UniProt P02763)",,,together with: Zn^2+,,change in binding constant,3.1%
Nc1nc2ccc(OC(F)(F)F)cc2s1,Voltage-dependent P/Q-type calcium channel subunit alpha-1A,"ion current, antagonist",HEK293,3 µM,,inhibition,0%
CN(CCO)c1cc2sc(/C=C(\C#N)c3ccc(C#N)cc3)cc2s1,"T2, ssRNA aptamer",fluorescence turn-on,,,,binding,binds
Cc1cc2c(cc1CCNS(=O)(=O)c1ccsc1C(=O)O)CCCC2,malate dehydrogenase,"enzyme activity, inhibitor",,"200 µM, pH 7.0, 1% DMSO, aggregation counter-screen",,remaining activity,71%
CN(CC(=O)Nc1ccc(Cl)c(C(F)(F)F)c1)C(=O)CCl,UCHL1,"covalent, intact protein LC-MS",,12.5 µM,,labelling,23.3%
CN(C)CCOC1=Cc2ccccc2Sc2ccc(Cl)cc21,Voltage-dependent P/Q-type calcium channel subunit alpha-1A,"ion current, antagonist, automated patch clamp",,,,IC30,2710 nM
CCC(NC(=O)CCc1c(C)c2cc(Cl)c(O)cc2oc1=O)C(=O)O (stereo not drawn),"Beta-1,4-galactosyltransferase 1 (B4GALT1, Homo sapiens, UniProt P15291)","enzyme activity, inhibitor, UDP-Glo",,10 µM,lower means stronger inhibition,luminescence,48700 a.u.
COc1ccc2c(c1)-c1c(ssc1=S)C(C)(C)N2C(=O)CSC#N,UCHL1,"covalent, intact protein LC-MS",,12.5 µM,,labelling,10.6%
N[C@@H](CCC(=O)O)C(=O)O,"glc-2 (Caenorhabditis elegans, UniProt Q17328, R351A/R352A/R353A/T283S)",two-electrode voltage clamp,Xenopus laevis oocytes,,,mean current,1.4 µA
Cc1ccc(C(=O)N(CCCN)[C@@H](c2oc3cc(Cl)ccc3c(=O)c2Cc2ccccc2)C(C)C)cc1,Toxoplasma gondii,"parasite growth, luciferase reporter","HFF, tachyzoite",72 h,,EC90,8220 nM
Oc1ccccc1-c1n[nH]cc1-c1ccnc2ccccc12,"Serine/threonine-protein kinase BUR1 (CRK1, Candida albicans, UniProt Q9Y7W4)","kinase binding, MIB/MS competition",Candida albicans lysate,10 µM,"relative to: DMSO, negative = stronger binding",log2 fold change,0.08
Cc1cc(Oc2ncccc2CN2CCN(c3ccccc3O)CC2)ccc1-c1c(C)c(=O)[nH]c(=O)n1C,ADRA2C,"binding, radioligand binding",,together with: [3H]rauwolscine,relative to: Ki alpha2B over Ki alpha2C,selectivity ratio,9
CN(C)CCCNc1nc(-c2cccc(-c3nc(NCCCN(C)C)c4ccccc4n3)n2)nc2ccccc12,"T3, G-quadruplex DNA (Homo sapiens)","thiazole orange displacement, competitor, FID",,"0.25 µM DNA, pH 7.4, 25 °C, KCl 100 mM, together with: thiazole orange 0.50 µM",,IC50,154 nM
COc1cc(C=C(C#N)C(=O)NC(C)C)cc(OC)c1,UCHL1,"covalent, intact protein LC-MS",,12.5 µM,,labelling,13.6%
Nc1ncnc2c1ncn2[C@@H]1O[C@H](COP(=O)(O)OP(=O)(O)O)[C@@H](O)[C@H]1O,GUK1,ITC,,molar ratio 3.736,,ΔH,-0.0961 kcal/mol
CSCCC(=O)N(C)CC1CCCN(CCc2cccc(C(F)(F)F)c2)C1 (stereo not drawn),Trypanosoma cruzi,"reporter translation, Renilla luciferase mRNA translation",cell-free extract,40 µM,relative to: DMSO,inhibition,-2.9%
Nc1ccc(C(=O)O)cc1,"BEST1, with wild-type BEST1 (Homo sapiens, UniProt O76090, L234P)","ion current, whole-cell patch clamp",HEK293 co-expressing mutant and wild-type,"concentration not given, voltage -40 mV",,current density,-10.7 pA/pF and -5.74 pA/pF and -8.27 pA/pF and -21.1 pA/pF and -6.12 pA/pF and -3.35 pA/pF
Cn1ncc(S(=O)(=O)NCc2ccc(S(=O)(=O)N3CCOCC3)cc2)c1C(=O)O,malate dehydrogenase,"enzyme activity, inhibitor",,"200 µM, pH 7.0, 1% DMSO, aggregation counter-screen",,remaining activity,90%
Cn1cc(-c2ccc(-c3cncc(Cl)c3N3CCC4(CCNC4=O)CC3)cc2)cn1,COLO 205,"gene expression, microarray, refers to: GNAZ mRNA",,"concentration not given, 6 h",relative to: untreated cells,log2 fold change,-2.25

# A few entries again:
Compound,tested on,test,system,conditions,how to read,measurement,value
CC1=C[C@H](O)CC(C)(C)[C@H]1/C=C/C(C)=C/C=C/C(C)=C/C=C/C=C(C)/C=C/C=C(C)/C=C/C1=C(C)C[C@@H](O)CC1(C)C,"Beta-lactoglobulin (LGB, Bos taurus, UniProt P02754)",fluorescence quenching,,298 K,,Stern-Volmer quenching constant,33000 ± 5000 L/mol
Cc1cc(Oc2ncccc2CN2CCN(c3ccccc3[N+](=O)[O-])CC2)ccc1-c1c(C)c(=O)[nH]c(=O)n1C,ADRA2C,"binding, radioligand binding",,together with: [3H]rauwolscine,relative to: Ki alpha2A over Ki alpha2C,selectivity ratio,6
CN1CCN(c2cc(-c3ccncc3)c(-c3ccc4ccccc4c3)nn2)CC1,"Melanocortin receptor 4 (MC4R, Homo sapiens, UniProt P32245)","agonist, FLIPR",,12.5 µM,,activation,-1.7%
Nc1ncnc2c1ncn2[C@@H]1O[C@H](CO[P@](=O)(O)O[P@](=O)(O)O[P@@](=O)(O)S)[C@@H](O)[C@H]1O,GUK1,ITC,,molar ratio 3.053,,ΔH,-0.246 kcal/mol
CC[C@@H]1[C@H](F)C(=O)N[C@@H]1COc1nccc2cc(C(N)=O)c(OC)cc12,"Serine/threonine-protein kinase 38-like (STK38L, Homo sapiens, UniProt Q9Y2H1)","ATP-site probe binding, ActivX profiling",THP-1 cell lysate,"0.04 mM, Lys1 site",,inhibition,-2%
O=C(O)CC(O)(CC(=O)O)C(=O)O,"uncharacterized protein (Pelagibacter ubique, UniProt Q4FLC8)","binding, competition isothermal titration calorimetry",Candidatus Pelagibacter ubique,"together with: cis-aconitate 1 mM competitor, MgSO4 53 mM",,Ka,1.44e+09 M⁻¹ and 1.43e+09 M⁻¹
